{"data": "Experimental data gathered from unrelated publications", "note": "Lines come from different studies, so protocols differ. “And” joins repeats or separate records; there may be more than shown. pEC50: −log10 of the molar value."}
{"Structure (SMILES)": "CCn1cc(-c2cc(Cn3ccoc3=N)cc3c2CCN([C@@H](C)c2cc(OC)ccn2)C3=O)c(C(F)(F)F)n1", "tested on": "SNU-449", "test": "cell growth, inhibitor", "setting": "120 h", "measurement": "pEC50", "value": 5.09}
{"Structure (SMILES)": "CNC(=O)c1cc(Oc2ccc(NC(=O)Nc3ccc(Cl)c(C(F)(F)F)c3)cc2)ccn1", "tested on": "iCell Cardiomyocytes (hiPSC-derived)", "test": "cellular impedance", "setting": "concentration not given, 24 h", "scale": "reference: control", "measurement": "cell index", "value": "96.8%"}
{"Structure (SMILES)": "CCn1cc(-c2cc(Cn3ccnc3)cc3c2CCN([C@H](c2cc(OC)ccn2)C2CC2)C3=O)c(C(F)(F)F)n1", "tested on": "GP2d", "test": "cell growth, inhibitor", "setting": "120 h", "measurement": "pEC50", "value": 6.88}
{"Structure (SMILES)": "Cc1[nH]c(/C=C2\\C(=O)Nc3ccc(S(=O)(=O)Cc4c(Cl)cccc4Cl)cc32)c(C)c1C(=O)N1CCC[C@@H]1CN1CCCC1", "tested on": "iCell Cardiomyocytes (hiPSC-derived)", "test": "xCELLigence Cardio impedance", "setting": "concentration not given, 2 h", "scale": "reference: control", "measurement": "beat amplitude", "value": "96.8%"}
{"Structure (SMILES)": "C=CC(=O)N1[C@@H](c2ccc3c(c2)OCO3)c2[nH]c3ccccc3c2C[C@H]1C(=O)NC", "tested on": "rat DRG neurons", "setting": "3.333 µM, 48 h, together with: vincristine 40 nM", "measurement": "neuron degeneration", "value": "50.2% and 52.7%"}
{"Structure (SMILES)": "COc1cnc2cccc(N3CCc4c(cc(Cn5ccnc5C)cc4-c4cn(C)nc4C(F)(F)F)C3=O)c2c1", "tested on": "SNU-449", "test": "cell growth, inhibitor", "setting": "120 h", "measurement": "pEC50", "value": "< 4.52"}
{"Structure (SMILES)": "Nc1nc2cc(-c3ccc4ncc(C(=O)N5CCOCC5)n4c3)ccc2o1", "tested on": "NLRP3 inflammasome (mouse)", "test system": "mouse BMDM", "setting": "10 µM", "measurement": "inhibition", "value": "-1.1%"}
{"Structure (SMILES)": "Cn1cc(-c2ccc(-c3cncc(Cl)c3N3CCC4(CCNC4=O)CC3)cc2)cn1", "tested on": "COLO 205", "test": "gene expression, microarray, measured: RPSA mRNA", "setting": "concentration not given, 2 h", "scale": "reference: untreated cells", "measurement": "log2 fold change", "value": -2.7}
{"Structure (SMILES)": "O=CC[C@H](O)[C@H](O)COP(=O)(O)O", "test": "binding, equilibrium dialysis LC-MS", "setting": "5 µM, thermostabilized A2AR-BRIL construct", "scale": "reference: no-protein control, direction not given", "measurement": "z-scored log2 fold change", "value": 0.202}
{"Structure (SMILES)": "Cc1ccc(Nc2nccc(N(C)c3ccc4c(C)n(C)nc4c3)n2)cc1S(N)(=O)=O", "tested on": "iCell Cardiomyocytes (hiPSC-derived)", "test": "cellular impedance", "setting": "concentration not given, 24 h", "scale": "reference: control", "measurement": "cell index", "value": "97.1%"}
{"Structure (SMILES)": "OCc1nc2ccc(NCc3ccc(F)cc3)cc2[nH]1", "tested on": "sample A patient iPSC NPCs", "test": "cell protection, MTS", "setting": "up to 100 µM, 24 h", "measurement": "Emax", "value": "13%"}
{"Structure (SMILES)": "COc1cc(N2CCC(N3CCN(C)CC3)CC2)ccc1Nc1ncc(Cl)c(Nc2ccccc2S(=O)(=O)C(C)C)n1", "tested on": "iCell Cardiomyocytes (hiPSC-derived)", "test": "cellular impedance", "setting": "concentration not given, 24 h", "scale": "reference: control", "measurement": "cell index", "value": "99.5%"}
{"Structure (SMILES)": "CN1C(=O)C2(NN=C(c3ccccc3)S2)c2ccccc21 (stereo not drawn)", "tested on": "TNBC cells", "test": "MTT", "setting": "10 µM, 24 h", "measurement": "viability loss", "value": "50 to 60%"}
{"Structure (SMILES)": "O=C(O)c1ccc(-c2c[nH]c3ncc(-c4ccccc4)cc23)cc1C1CCCC1", "tested on": "SK-OV-3", "test": "ATP", "test system": "2D monolayer culture", "setting": "1 µM, 4 days", "scale": "reference: untreated", "measurement": "relative cell number", "value": "115%"}
{"Structure (SMILES)": "OCCn1cc(-c2ccc3c(c2)CC/C3=N\\O)c(-c2ccncc2)n1", "tested on": "iCell Cardiomyocytes (hiPSC-derived)", "test": "CellTiter-Glo", "setting": "concentration not given, 24 h", "scale": "reference: control", "measurement": "ATP level", "value": "95.6%"}
{"Structure (SMILES)": "O=C(/C=C/C=C/C=C/C1CCCCC1)NC1=C[C@@](O)(/C=C/C=C/C=C/C(=O)NC2=C(O)CCC2=O)[C@@H]2O[C@@H]2C1=O", "tested on": "CFPAC-1", "test": "cell growth, CellTiter-Glo", "setting": "78 h", "measurement": "GI50", "value": "> 30 µM"}
{"Structure (SMILES)": "COc1ccc2ccnc(Cc3ccc(OC)c(OC)c3)c2c1", "tested on": "A549", "test": "mitochondrial oxygen consumption, Seahorse XF96", "setting": "10 µM", "measurement": "inhibition", "value": "48%"}
{"Structure (SMILES)": "CN(CC(=O)O)C(=N)N", "test": "binding, equilibrium dialysis LC-MS", "setting": "5 µM, thermostabilized A2AR-BRIL construct", "scale": "reference: no-protein control, direction not given", "measurement": "z-scored log2 fold change", "value": 0.131}
{"note": "For quick reference, copied from above:"}
{"Structure (SMILES)": "C=CC(=O)N1[C@@H](c2ccc3c(c2)OCO3)c2[nH]c3ccccc3c2C[C@H]1C(=O)NC", "tested on": "rat DRG neurons", "setting": "3.333 µM, 48 h, together with: vincristine 40 nM", "measurement": "neuron degeneration", "value": "50.2% and 52.7%"}
{"Structure (SMILES)": "COc1cnc2cccc(N3CCc4c(cc(Cn5ccnc5C)cc4-c4cn(C)nc4C(F)(F)F)C3=O)c2c1", "tested on": "SNU-449", "test": "cell growth, inhibitor", "setting": "120 h", "measurement": "pEC50", "value": "< 4.52"}
{"Structure (SMILES)": "Nc1nc2cc(-c3ccc4ncc(C(=O)N5CCOCC5)n4c3)ccc2o1", "tested on": "NLRP3 inflammasome (mouse)", "test system": "mouse BMDM", "setting": "10 µM", "measurement": "inhibition", "value": "-1.1%"}
